Experimental data collected from several papers.
Every numbered part comes from another study and shows a few of its results, in no order.

Set 1
Target: Prothrombin, mature alpha-thrombin (F2, Homo sapiens, UniProt P00734)
Technique: aptamer microarray, sandwich
Molecule type: DNA with 2'F-ANA
Matrix: in vitro
Tested at: 200 nM
Notes: whole 15-mer aptamer, many near background
Added: Cy3 exosite-II aptamer, 400 nM
Direction: higher = stronger binding
Sequence: GGTTGGTGTGGTTGG
`2'F-ANA at 1 5 6 10 13 15`: “mean fluorescence intensity” 44.7 a.u.
Under “mean fluorescence intensity”, `2'F-ANA at 2 3 4 6 7 12 13 15` is recorded as 569 a.u.
Under “mean fluorescence intensity”, `2'F-ANA at 6 7 9 10` is recorded as 171 a.u.
Under “mean fluorescence intensity”, `2'F-ANA at 1 2 4 5 7 8 9` is recorded as 63.2 a.u.
For `2'F-ANA at 1 3 7 8 10 11 13 15`, “mean fluorescence intensity” read 77.9 a.u.
`2'F-ANA at 1 2 5 7 8 9 10 11 13 14` — result for “mean fluorescence intensity”: 51.5 a.u.

Set 2
Target: RING finger protein unkempt homolog, zinc fingers 1-6, GST-SBP tag (UNK, Homo sapiens, UniProt Q9C0B0, residues 30-357)
Chain of UniProt Q9C0B0 (30-357, looked up): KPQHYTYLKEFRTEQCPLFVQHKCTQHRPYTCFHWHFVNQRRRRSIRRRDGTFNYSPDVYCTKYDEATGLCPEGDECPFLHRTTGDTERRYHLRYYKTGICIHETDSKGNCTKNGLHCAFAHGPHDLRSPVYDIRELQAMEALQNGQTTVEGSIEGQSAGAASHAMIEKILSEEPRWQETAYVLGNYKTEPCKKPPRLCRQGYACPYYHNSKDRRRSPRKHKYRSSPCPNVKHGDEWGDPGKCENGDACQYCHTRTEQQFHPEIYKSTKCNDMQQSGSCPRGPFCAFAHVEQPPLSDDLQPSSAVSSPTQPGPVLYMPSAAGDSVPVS
Technique: RNA Bind-n-Seq
Molecule type: RNA
Matrix: in vitro
Tested at: not given
Notes: RNA with constant flanks, human and mouse sites, ends assumed
Relative to: input RNA pool
Direction: higher = stronger binding
For `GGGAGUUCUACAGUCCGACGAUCAGCACUGAGAGCAGUCCAUCCAUUGCCACAGUAUGUCAUAGUGAGGAAGUCAGGGAGACCUUAGAAAGCAAUACAAACCUUCAUAAUCGCACUGAGACAGAGCAUACUCCAGCAGUUUGUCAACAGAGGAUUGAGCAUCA`, the bound/input enrichment was 0.435 ratio.
For `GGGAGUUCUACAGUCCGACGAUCAGGAAAAACCAAACUACAAAAAGAUUUAUUUAUAAUAUUCCACCUAAUAAUGAAACGAAUUUAGAAGAUUGCUCAGUAAUGCAGCCACCUGUUGCCUAUCCAGAAGAAAAUACACUACUCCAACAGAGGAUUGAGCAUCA`, the bound/input enrichment was 21 ratio.
The bound/input enrichment of `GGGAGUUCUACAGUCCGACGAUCUGCGACGCGCAGUCCACGCAGGAGAUCCAUGAGAAGGUACCACCACGUGGUCGCCUGGGGCUGGCAGAACCGCACGUUGGGGGGAGUUGGAGGGACGGGAGCACGGCAGGCCCGGGCCACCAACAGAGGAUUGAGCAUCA` is reported as 0.218 ratio.
`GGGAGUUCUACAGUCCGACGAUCUGCAAUUGGGUAGUGGACACUUGUUUACACAAGGGAAGUCGAGAUAACAUGAGUAUUGUACUAGUUUGCUUUUCAAAUGCUCCCAAGGUCUCAGAUGAAGCGGUGAAAAAAGAUUCAGAGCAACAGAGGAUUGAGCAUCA` has a bound/input enrichment of 0.255 ratio.
The bound/input enrichment of `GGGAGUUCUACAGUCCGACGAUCUACGGCAAAGGCAAGAGUAACAGCAGCGCCGUCCCGUCCGACAGCCAGGCCCGGGAGAAGUUAGCACUCUACGUAUAUGAAUAUCUGCUCCAUGUAGGAGCUCAGAAAUCAGCUCAAACACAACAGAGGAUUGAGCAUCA` is reported as 0.25 ratio.
`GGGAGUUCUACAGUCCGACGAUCUUGCUUUUCACAUCCAUUUCCCCUCCUUCCCAUGGGCAGAGGACCAGGCUGUAGGAAAUCUAGUUAUUUACAGGAACUUCAUCAUAAUUUGGAGGGAAGCUCUUGGAGCUGUGAGUUCUCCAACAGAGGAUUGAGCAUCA` gave a bound/input enrichment of 0.768 ratio.

Set 3
Target: Max-binding protein MNT, bHLH-zipper, MAX partner unstated (MNT, Homo sapiens, UniProt Q99583, residues 220-300)
Technique: protein-binding microarray
Molecule type: double-stranded DNA, one strand shown
Matrix: in vitro
Tested at: not given
Notes: k-mer, scored over probes, only values ≥0.25
Direction: higher = stronger binding
Residues (chain): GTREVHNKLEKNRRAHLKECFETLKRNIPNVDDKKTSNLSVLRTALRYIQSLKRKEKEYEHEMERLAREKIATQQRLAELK
`AAAGCATG` gave an E-score of 0.423.
For `ACGTGTTC`, the E-score was 0.448.
For `ACATGCAT`, the E-score was 0.349.
For `AACATGCT`, the E-score was 0.356.
`CGCGTGAG` has an E-score of 0.353.
`ATGCACGG` has an E-score of 0.316.
`ACGCATGG` has an E-score of 0.442.

Mixed results
With `PhoQ, residues 284 288 289 292 302 303 SNSSNI` the fold induction was 6.1 (PhoP, residues 12 14 15 18 19 LYHSL (Escherichia coli, UniProt P23836); Sort-seq, measured: YFP reporter; E. coli; PhoQ-PhoP variant library, added: 10 µM Mg2+; relative to: high Mg2+ state, higher = stronger signaling).

A few entries again (set 3):
`AAAGCATG` gave an E-score of 0.423.
